Experimental data gathered from unrelated publications.
Every numbered part comes from another study and shows a few of its results, in no order.

Sample 1 — technique: competition protein-binding microarray; molecule type: double-stranded DNA, one strand shown; matrix: in vitro; concentration: 2 µM; with: Cbf1 competitor, 0.05 µM; direction: higher = stronger binding; quantity: fluorescence intensity
Target: Phosphate system positive regulatory protein PHO4, full length, GST-tagged (PHO4, Saccharomyces cerevisiae, UniProt P07270, residues 1-312)
Setting: whole 60-bp probe, lowest competitor level
Residues (chain): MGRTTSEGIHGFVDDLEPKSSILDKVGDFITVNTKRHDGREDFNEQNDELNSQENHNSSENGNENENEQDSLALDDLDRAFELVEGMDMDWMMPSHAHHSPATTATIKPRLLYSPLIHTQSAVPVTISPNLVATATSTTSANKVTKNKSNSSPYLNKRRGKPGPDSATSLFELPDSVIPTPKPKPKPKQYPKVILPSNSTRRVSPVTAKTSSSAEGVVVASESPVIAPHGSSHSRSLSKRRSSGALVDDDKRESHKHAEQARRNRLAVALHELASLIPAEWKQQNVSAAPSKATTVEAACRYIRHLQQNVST
TGCGCAACAACTTGTCACTAGACTTTATGTCTAGAAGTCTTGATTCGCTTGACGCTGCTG: 2880 a.u.
CTAACGAAGGTTTGCAATGTGGGTGACAAGCCAAGTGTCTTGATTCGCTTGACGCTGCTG: 5310 a.u.
TTCATTTTTGGTTAACTCGTGTAACTCTTCTTCCAAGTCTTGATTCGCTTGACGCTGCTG: 6540 a.u.
AAAGCGGTAATTTGTAAGGTGGGTGCAGATATCTATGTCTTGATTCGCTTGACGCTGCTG: 4090 a.u.
AGATTATTACAAGTGGTCGTGATGGACGTAAAGTTTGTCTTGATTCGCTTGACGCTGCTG: 6020 a.u.
CGTCTAGCAATACCGCACATGTTATTTGTGCTGTAGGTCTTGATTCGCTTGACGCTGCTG: 11600 a.u.
GCACTTTCACTACTAGACGTGCTTTTAAAAAATTGTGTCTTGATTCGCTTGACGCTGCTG: 7140 a.u.
CCGACCTTGTTGAAGTGCATGACAATACCGTCGTCCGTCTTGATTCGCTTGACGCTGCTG: 4300 a.u.
ACTTCTCCTCTGATCTTCGTGATGGGAGTTTTGAGTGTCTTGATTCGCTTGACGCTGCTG: 5450 a.u.

Sample 2 — technique: protein binding microarray; molecule type: double-stranded DNA, one strand shown; matrix: in vitro; concentration: not given; relative to: not given; direction: higher = stronger binding; quantity: E-score
Target: Histone acetyltransferase KAT6A, winged helix 1, GST fusion (KAT6A, Homo sapiens, UniProt Q92794, residues 1-85)
Setting: 8-mer, flanks averaged, mean of 2 arrays, mostly near background
Construct (chain): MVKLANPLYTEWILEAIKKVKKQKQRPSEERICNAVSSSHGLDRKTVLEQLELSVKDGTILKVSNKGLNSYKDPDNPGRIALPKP
CCTATCTC: -0.149
ACTTGCAT: -0.178
ATAATTCC: -0.117
ATTTTATA: 0.0715
GGTGTGCA: -0.182
ACTTTGAG: -0.281
GCCTAGAA: 0.00819

Sample 3 — technique: universal PBM; molecule type: double-stranded DNA, one strand shown; matrix: in vitro; concentration: not given; direction: higher = stronger binding; quantity: E-score
Target: Sal-like protein 4, full length isoform B (SALL4, Homo sapiens, UniProt Q9UJQ4-2, residues 1-616)
Setting: 8-mer, flanks averaged, mean of replicates
GGAACCCC: -0.354
ACGTTGAT: 0.17
GCAAACAC: -0.0173
ACGACTAC: -0.127
AGGCTGTG: -0.154
ACTTCGGG: -0.132
ACGAGGGG: -0.235

Other studies, line by line
PhoQ, residues 284 288 289 292 302 303 SIHMAM — fold induction (PhoP, residues 12 14 15 18 19 VHSCL (Escherichia coli, UniProt P23836); Sort-seq, refers to: YFP reporter; E. coli; PhoQ-PhoP variant library, with: 10 µM Mg2+; relative to: high Mg2+ state, higher = stronger signaling): 5.29

Excerpt of the above (sample 2):
ACTTGCAT: -0.178
CCTATCTC: -0.149
GCCTAGAA: 0.00819
ATTTTATA: 0.0715
